Measurements pooled from the literature.
Parts stem from different laboratories: compare values within a part only.

Study 1 — method: protein binding microarray; form: double-stranded DNA, one strand shown; sample: in vitro; tested at: not given; reference: not given; reading: higher = stronger binding
Target: Histone acetyltransferase KAT6A, winged helix 2, GST fusion (KAT6A, Homo sapiens, UniProt Q92794, residues 85-181)
Notes: 8-mer, flanks averaged, mean of 2 arrays, mostly near background
Residues (chain): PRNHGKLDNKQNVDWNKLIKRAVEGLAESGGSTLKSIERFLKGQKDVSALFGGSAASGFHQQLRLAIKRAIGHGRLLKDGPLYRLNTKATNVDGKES
Oligonucleotide	E-score
ACTTTGTC	-0.131
CCGTAGGC	-0.0155
ACACTAGG	-0.0887
GTCGCGGA	0.0709
ACGAAGCT	-0.0542
ACCTCGCA	0.0243
ATAGAAAG	-0.0988
AGAGAGCT	-0.147
AGCATGTG	-0.139
CTCAGGTC	0.135
CCAGCGGG	0.298
ACCGTGCA	-0.0991
ATCCCCTA	-0.157
AAAGAGAC	0.0896
ATAAAGAC	-0.0428
AAAAAAAT	0.0682
AGTAATGC	-0.0657
CCTTGTAC	-0.0919
GTCGTTCA	-0.00741
ATGACGCA	-0.023
AACTGCAG	0.0495
AGGCTGTC	-0.204
CAGAACGA	0.041
GCCGGTAC	0.0306
GGTTTGAC	0.049

Study 2 — method: RNA Bind-n-Seq; form: RNA; sample: in vitro; tested at: 365 nM; reference: no-protein control; reading: higher = stronger binding
Target: RNA binding protein fox-1 homolog 2, RRM domain, GST-SBP tag (RBFOX2, Homo sapiens, UniProt O43251-10, residues 100-194)
Notes: natural RNA segment, single round, ends assumed
Target sequence (chain): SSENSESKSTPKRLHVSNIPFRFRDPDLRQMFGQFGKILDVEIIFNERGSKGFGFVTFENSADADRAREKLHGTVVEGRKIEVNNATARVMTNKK
Oligonucleotide	RBNS enrichment (R)
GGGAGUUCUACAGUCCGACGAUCCUGCCACAGAGCAGCUUCCCACCUACCCUAGGGACUCCACAGCUUCUGGCAAGCAGGUGCAGAGUCCCCAGCUCUGGGCUGUGCUGGGGAGUGUCAGGCCUGGAGUCCACUGGAAUUCUCGGGUGCCAA	0.391
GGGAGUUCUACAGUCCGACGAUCGCCUAGUUUUUGGCUCUUCACAUAUUCCAUAUUGAUUUUGACGCUCUGUAUAUUGGCAUCAGGUGGCAGCUGAAUAUCUUUUGAAUUACUCGAAGGUAAAGCCAGAUGCCUGGAAUUCUCGGGUGCCAA	0.467
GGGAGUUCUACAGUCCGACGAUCGAGAAAAUUAGCUAUGGGAAGAUAUUAAAAGAUUUCUUAGAUGGAUGUGGUUAAAAUUUUUGUAAUAUAUUUAAAUGUAUAUUUUUGAGAGAGAUACUACAUUGCCAAGGUGGAAUUCUCGGGUGCCAA	2.35
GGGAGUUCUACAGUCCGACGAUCGUAUAUUACGUGAAAUGUGAAGUUAAAACUGAAGCUAAGAGUGUUUGUGGUUGUAAUUGUUUUUUUUUUGAAAUGUUUUUUUUAUUAUGAAAUAAAACGGAUGUUAAUUUUGGAAUUCUCGGGUGCCAA	1.44
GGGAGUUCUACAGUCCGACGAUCAAACAUCUGGAUAUCAAGGUGGAAAUGGCCCAUUUAAUGAUUGAUUAUAUCAUUUUGUGGAUAUAGUUAUAAUCUGAUGGGCCUGGCUGGGAGUGGAAGAAGGGAAGCCUUGGAAUUCUCGGGUGCCAA	0.347
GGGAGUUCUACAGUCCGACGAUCUUAUUUAUUCUUGUUUAUUCAAAUGACUGCAAUAACAAUGAUUCAUUCAUUAAUGUUAAGGCUAAUACAUUUAAGAUCUUGUUUAAACAAUGUUUCUUCUGCAACUGGCUUGGAAUUCUCGGGUGCCAA	0.418
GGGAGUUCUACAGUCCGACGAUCUACAUCAACACAGUGGUGAUGCUGGAGAACGUUACCCAAGGUCUCAUCAGUGUCUCUGCUGUACUGGAAGCCACCUCUGGUUUUCCUCUGAAAUAUUAAAAGACAGAAUCUGGAAUUCUCGGGUGCCAA	0.195
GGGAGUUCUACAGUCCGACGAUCAAACGCACGACAGUUACCCAGAAGGUUUUAUUUCUCAGCAGAUUUGUAGAAUGAAGUAUAACGUCAGUGAAUGAGAGUCCAAGUUCUUAUCACACGAUAUUAGGUACUAAUGGAAUUCUCGGGUGCCAA	0.524
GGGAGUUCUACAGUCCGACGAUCUCAGAUGAGGACCUCCUGGAUAGCUCUUCAGAGGAGCUGGGACUGCGUGUGCGUGGAGCCACAGUACCUCCUACACUCCCUGAGGCUCCGACUUGGGGAAAUAAAUUUCCUGGAAUUCUCGGGUGCCAA	0.317

Study 3 — method: RNA Bind-n-Seq; form: RNA; sample: in vitro; tested at: 200 nM; notes: whole 134-nt RNA, ends assumed; together with: 150 mM LiCl; reference: input library; reading: higher = stronger binding; each molecule: 7-deaza-guanosine replaces G
Target: Fragile X messenger ribonucleoprotein 1, C-terminal low-complexity region (Fmr1, Mus musculus, UniProt P35922)
Oligonucleotide	log2 enrichment
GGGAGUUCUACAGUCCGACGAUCGUCCUGUGCUACACAUCGUAUGUACCGAAUCGGGUUUUUUGGGUUUUUUGGUUUUUUGGAAAGUAUUAUGUUACGCCGUUCGGAUCUGCAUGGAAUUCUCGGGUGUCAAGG	-1.61
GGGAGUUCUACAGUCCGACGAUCUUAUUCUGUGUGACACCUGCCCUCGUGCCUACCACCUCGUCUGCCUUGAUCCUGAGCUUGACCGGGCUCCAGAGGGCAAAUGGAGCUGCCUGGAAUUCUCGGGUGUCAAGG	1.28
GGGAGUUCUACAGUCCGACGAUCGUCCUGUGCUACACAUCGUAUGUACCGAAUCGGGAAAGGGAAAAAAAGGGAAAAAGGGAAAGUAUUAUGUUACGCCGUUCGGAUCUGCACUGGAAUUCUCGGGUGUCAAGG	0.319
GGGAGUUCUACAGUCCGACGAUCAGUCCUGUGCUACACAUCGUAUGUACCGAAUCGGGUUUUUGGGUUUUUUUGGGUGGGAAAGUAUUAUGUUACGCCGUUCGGAUCUGCACUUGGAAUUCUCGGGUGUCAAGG	-1.31
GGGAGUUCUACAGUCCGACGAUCCAAGUCCUGUGCUACACAUCGUAUGUACCGAAUCGGAAAAAAAGGAAAGGAAAGGAAAGUAUUAUGUUACGCCGUUCGGAUCUGCACUUCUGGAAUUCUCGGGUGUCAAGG	-0.978
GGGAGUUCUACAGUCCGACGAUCACCAUGCAGGUGGGCAUCUUUGGGAAGUGGGGCAAGGGGGGGGUAGGGAGGGGGGUAACACUUUGGGAACAGGUGGUCCCAGGUCGUUUCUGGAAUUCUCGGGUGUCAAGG	1.27
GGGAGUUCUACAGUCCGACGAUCGGCCCGACCUGAUCGACUUUGAUAAGCUGAAGGACUCCAAUGCCCGGCACAACCUGGAGCACGCAUUCAAUGUGGCUGAGCGCCAGCUGGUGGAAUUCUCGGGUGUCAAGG	-0.819
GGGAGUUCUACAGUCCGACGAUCCAAGUCCUGUGCUACACAUCGUAUGUACCGAAUCGGGGCCCGGCCCGGGGCCCGGGAAAGUAUUAUGUUACGCCGUUCGGAUCUGCACUUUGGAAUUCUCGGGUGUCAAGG	-1.89
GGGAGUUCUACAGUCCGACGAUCCCUGUGCUACACAUCGUAUGUACCGAAUCGGGGCCCCCCGGGCCCCCCGGGCCCCCCGGGGAAAGUAUUAUGUUACGCCGUUCGGAUCUGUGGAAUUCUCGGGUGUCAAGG	-1.75
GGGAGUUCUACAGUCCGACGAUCCACAGACAACACGCACGCACACAGACACAGAGGGAAGGGGUUGGGAUGGGGACAGGGUGCACAGCAGGGCGGGGUAGGACCCCAGCCCCUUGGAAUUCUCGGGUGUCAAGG	0.929
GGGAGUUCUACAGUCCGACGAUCCCUGUGCUACACAUCGUAUGUACCGAAUCGGGGUUUUUUUGGGGAAAGGGGUUUUUGGGGAAAGUAUUAUGUUACGCCGUUCGGAUCUGCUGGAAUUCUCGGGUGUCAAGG	-1.08

Study 4 — method: RNA Bind-n-Seq; form: RNA; sample: in vitro; tested at: not given; reference: input RNA pool; reading: higher = stronger binding
Target: RING finger protein unkempt homolog, zinc fingers 1-6, GST-SBP tag (UNK, Homo sapiens, UniProt Q9C0B0, residues 30-357)
Notes: RNA with constant flanks, human-mouse chimeric sites, ends assumed
Construct (chain): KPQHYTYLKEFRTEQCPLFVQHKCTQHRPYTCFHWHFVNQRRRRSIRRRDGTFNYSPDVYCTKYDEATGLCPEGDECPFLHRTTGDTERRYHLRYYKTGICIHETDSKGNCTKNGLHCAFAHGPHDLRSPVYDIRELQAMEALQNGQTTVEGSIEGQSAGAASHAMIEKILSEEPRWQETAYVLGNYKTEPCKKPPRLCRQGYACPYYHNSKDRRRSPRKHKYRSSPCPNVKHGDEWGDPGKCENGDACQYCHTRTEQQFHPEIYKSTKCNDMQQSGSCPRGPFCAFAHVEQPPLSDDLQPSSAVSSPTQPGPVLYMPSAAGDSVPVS
Oligonucleotide	bound/input enrichment [ratio]
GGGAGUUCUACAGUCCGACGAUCGCUCCUCCCCGCUCUGCAGCCUGGGGACACUGGGCUGCAUUUUUUUUCCAGCUUUCUUUUAAAACUCUCAGUGUAACUGUAUCCCGUGACAUUUCAUUUUUUUUUUAUAGUGUAUUUUUUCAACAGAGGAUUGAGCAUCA	16.7
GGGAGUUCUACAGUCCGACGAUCGAGCCAAGCCGGCAGUUUGUAAAGGACUCCAUUCGGCUGGUUAAAAGAUGCACCAAACCCGACAGAAAAGAAUUCCAGAAGAUUGCCAUGGCUACAGCUAUAGGAUUUGCUAUCAUGGGACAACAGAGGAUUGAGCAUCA	0.162
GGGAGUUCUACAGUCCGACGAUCCCCCAAUACCAUUUGCAGGUCUGGAACUGCACUCUCUUUUUUAAAAAACAUGUAUACAUUUUAGGGCUGUAGAUUUACUUUCCUAUUUUUGUUUUUCUUGCUUAUUCUUUGAGCACAGAACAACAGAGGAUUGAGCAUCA	1.83
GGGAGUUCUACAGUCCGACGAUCAUGGAGAAGGAUUCUCUGCCUCGCUUUGUGCGCUCUGAAUUUUAUAAGGAGCUAAUCAAGUAGUCAUCUGGUCAGGCUAUGAAAUCAUGCCCUGUGAGUUGAGUUACAUCCUUUGUAGCACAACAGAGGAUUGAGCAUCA	0.244
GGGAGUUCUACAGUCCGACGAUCCGGAGCCCUCCUCUCCCACAGGCCCAAGAUAUAACCCACCAGUGCCUUUUGUCUUCCCGUUAGCUUUGUCAAUCACGGCCCUGCCUUCACGCCCACACCAAGUGCCCAAAGUGGGGAGGGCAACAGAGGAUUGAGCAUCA	1.66
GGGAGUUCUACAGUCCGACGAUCAAAUUUCCCCUCCUGAGACCUCCUCCGAAGUUGGAGUCUCUUACAGAUGCCUCAUCCCCUGUUAGUAUUUUAGUUUGGACCACCCAGCCUUGGACAAUUCCCGCCAACCAGGCAAUUUGCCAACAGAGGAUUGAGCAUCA	2.33
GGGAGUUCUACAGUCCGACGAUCAACGUGGAGUUGAGUUCCUUGGCCCGGCUUCCCAGCUUGAAUAAACUUCGAAAAUUGGAACUUAGUGAUAAUAUAAUUUCUGGAGGCUUGGAAGUCCUGGCAGAGAAAUGUCCAAAUCUUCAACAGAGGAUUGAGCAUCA	2.93
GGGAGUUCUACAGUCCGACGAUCGUACUGCAGCAGCAGGGAAAACUGCAGGAAGCUCUGAUGCAUUAUAAGGAGGCUAUUCGAAUCAGUCCUACAUUUGCUGAUGCCUACUCUAAUAUGGGAAACACUCUAAAGGAGAUGCAGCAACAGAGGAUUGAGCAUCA	0.232
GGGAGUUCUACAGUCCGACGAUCUCGGAUGCUGUGCUGGGUCACUUUUCAUAUCCAGAUCCUUCACAGUGGACAGAUGAAGAAUUAGGUAUCCCUCCUGAUGAUGAAGACUGACACUGUAAACUCUCUGGACGAGUAGGAGCACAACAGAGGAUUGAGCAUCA	0.568
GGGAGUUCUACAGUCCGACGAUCAGAGAAAUGAGAAAGAAUCUUACACAAGAUGAGAUGCAAAGAAUGUCUACUAGAGUCCUUUUGGCGACUCUUUCCAUCCCUAUUACUCCUGAGCGAACUGAUAUUGCUCGACUUUUGGAUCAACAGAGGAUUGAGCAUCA	0.0996
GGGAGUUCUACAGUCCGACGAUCGGACAUCUGUCAAAUUGUAUUUCCCGUGUGAAACAAGUGAACACUCUUCAUAUACUAAUCUGCUUGUACAUCUGUAUGAUAGAGAAAUGUAAAUAUGUUAAUCCAAGCAAUGUGUCACUUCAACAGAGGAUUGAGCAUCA	0.298
